Published values collected from several papers.
Parts stem from different laboratories: compare values within a part only.
UniProt Q6P2M8, sequence (whole entry, looked up): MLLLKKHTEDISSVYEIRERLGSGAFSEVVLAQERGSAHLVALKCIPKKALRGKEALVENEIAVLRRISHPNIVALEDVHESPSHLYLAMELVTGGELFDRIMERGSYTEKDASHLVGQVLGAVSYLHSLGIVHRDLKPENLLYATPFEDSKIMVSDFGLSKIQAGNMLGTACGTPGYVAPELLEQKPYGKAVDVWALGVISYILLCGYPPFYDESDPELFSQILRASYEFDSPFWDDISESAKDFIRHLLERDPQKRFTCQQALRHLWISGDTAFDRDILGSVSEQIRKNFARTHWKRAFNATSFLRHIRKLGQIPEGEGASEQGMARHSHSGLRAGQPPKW
UniProt P38919, sequence (whole entry, looked up): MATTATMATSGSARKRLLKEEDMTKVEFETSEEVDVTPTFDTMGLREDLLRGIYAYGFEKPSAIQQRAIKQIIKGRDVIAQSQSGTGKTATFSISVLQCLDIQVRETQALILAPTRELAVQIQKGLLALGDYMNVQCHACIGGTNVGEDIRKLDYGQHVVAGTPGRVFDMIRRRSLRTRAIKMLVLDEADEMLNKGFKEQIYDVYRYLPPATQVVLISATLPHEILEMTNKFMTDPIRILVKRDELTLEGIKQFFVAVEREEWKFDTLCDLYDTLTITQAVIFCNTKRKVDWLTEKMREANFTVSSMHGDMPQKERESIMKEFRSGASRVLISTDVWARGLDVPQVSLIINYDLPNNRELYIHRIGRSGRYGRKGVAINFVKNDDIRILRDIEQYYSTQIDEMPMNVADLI
UniProt Q8TDX7, sequence (whole entry, looked up): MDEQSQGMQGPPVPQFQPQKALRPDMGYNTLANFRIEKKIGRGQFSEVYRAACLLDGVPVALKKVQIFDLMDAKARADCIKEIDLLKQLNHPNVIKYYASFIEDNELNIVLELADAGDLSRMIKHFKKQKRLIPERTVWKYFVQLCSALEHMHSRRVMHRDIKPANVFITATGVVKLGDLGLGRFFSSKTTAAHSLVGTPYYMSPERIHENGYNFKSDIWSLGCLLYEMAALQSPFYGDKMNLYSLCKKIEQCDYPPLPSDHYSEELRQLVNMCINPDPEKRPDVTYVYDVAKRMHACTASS
UniProt P35626, sequence (whole entry, looked up): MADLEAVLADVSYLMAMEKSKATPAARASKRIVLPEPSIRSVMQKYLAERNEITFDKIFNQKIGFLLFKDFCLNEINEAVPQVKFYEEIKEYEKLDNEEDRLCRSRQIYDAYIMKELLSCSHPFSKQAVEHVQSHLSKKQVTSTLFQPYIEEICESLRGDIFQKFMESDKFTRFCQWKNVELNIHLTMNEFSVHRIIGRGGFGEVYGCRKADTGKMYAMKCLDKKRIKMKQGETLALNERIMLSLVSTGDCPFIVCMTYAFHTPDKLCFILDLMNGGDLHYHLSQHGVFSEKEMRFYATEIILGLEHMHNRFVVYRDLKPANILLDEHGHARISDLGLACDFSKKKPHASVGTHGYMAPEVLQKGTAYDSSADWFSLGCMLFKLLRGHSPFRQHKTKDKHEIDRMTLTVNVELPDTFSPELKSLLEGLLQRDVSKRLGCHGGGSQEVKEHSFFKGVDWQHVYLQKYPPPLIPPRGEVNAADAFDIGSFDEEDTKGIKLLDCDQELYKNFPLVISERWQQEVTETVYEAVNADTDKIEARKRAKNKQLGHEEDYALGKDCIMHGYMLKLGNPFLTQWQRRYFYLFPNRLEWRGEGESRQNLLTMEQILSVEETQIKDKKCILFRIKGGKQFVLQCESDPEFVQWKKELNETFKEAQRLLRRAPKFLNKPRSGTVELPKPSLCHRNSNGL
UniProt Q96GD4, sequence (whole entry, looked up): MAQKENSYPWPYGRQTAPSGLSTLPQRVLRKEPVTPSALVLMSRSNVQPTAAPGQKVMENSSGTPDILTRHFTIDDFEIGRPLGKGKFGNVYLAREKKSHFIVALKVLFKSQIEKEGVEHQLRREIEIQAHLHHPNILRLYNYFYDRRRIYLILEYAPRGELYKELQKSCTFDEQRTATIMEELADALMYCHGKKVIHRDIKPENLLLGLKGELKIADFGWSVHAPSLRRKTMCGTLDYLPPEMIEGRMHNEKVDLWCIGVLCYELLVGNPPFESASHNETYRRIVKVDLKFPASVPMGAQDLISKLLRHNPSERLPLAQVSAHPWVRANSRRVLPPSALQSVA

Study 1
SMILES: Cn1cncc1[C@](O)(COc1ccc(C#N)cc1-c1ccc(OC(F)(F)F)cc1)c1ccc(C#N)cc1
Read-out: binding
Method: competition with immobilised ligand
Quantity: Kd
G protein-coupled receptor kinase 3 (GRK3, Homo sapiens, UniProt P35626): > 10 µM
Calcium/calmodulin-dependent protein kinase type 1B (PNCK, Homo sapiens, UniProt Q6P2M8): > 10 µM
Serine/threonine-protein kinase Nek7 (NEK7, Homo sapiens, UniProt Q8TDX7): > 10 µM
Aurora kinase B (AURKB, Homo sapiens, UniProt Q96GD4): > 10 µM

Study 2
Organism: Plasmodium berghei
Mode: inhibitor
Cells: Huh-7
Strain: liver stage
Concentration: 10 µM
Time: 24 h
Reference: untreated control
Quantity: infection rate
C#C[C@]1(O)CC[C@H]2[C@@H]3CCC4=CC(=O)CC[C@]4(C)[C@H]3CC[C@@]21C: 88%
CC(Cc1ccc(O)cc1)NCC(O)c1cc(O)cc(O)c1 (stereo not drawn): 83%
CCC(N)C(O)c1ccc(O)c(O)c1 (stereo not drawn): 83.1%

Single results of other studies
COC(=O)[C@@H]1[C@@H](c2ccccc2)[C@]2(c3ccc(OC)cc3)Oc3cc(OC)cc(OC)c3[C@@]1(O)[C@H]2O  fluorescence polarization change (Eukaryotic initiation factor 4A-III (Homo sapiens, UniProt P38919); RNA clamping, fluorescence polarization; concentration not given, mean of two replicates, together with: FAM-labelled poly r(AG)8 RNA): 5 mP
Cc1ccc(NC=C2C(=O)NC(=O)N(c3ccccc3)C2=O)cc1Cl  inhibition (AlphaScreen signal, AlphaScreen counter screen; His6 peptide without bromodomain; 50 µM, assay interference check): 14.2%
